Measured values pooled from the literature.
Every numbered part comes from another study and shows a few of its results, in no order. Substitutions count along the parent as printed.

Sample 1 — method: protein binding microarray; molecule type: double-stranded DNA, one strand shown; matrix: in vitro; tested at: not given; baseline: not given; direction: higher = stronger binding
Target: Histone acetyltransferase KAT6A, both winged helices, GST fusion (KAT6A, Homo sapiens, UniProt Q92794, residues 1-181)
Notes: 8-mer, flanks averaged, mean of 2 arrays, mostly near background
Residues (chain): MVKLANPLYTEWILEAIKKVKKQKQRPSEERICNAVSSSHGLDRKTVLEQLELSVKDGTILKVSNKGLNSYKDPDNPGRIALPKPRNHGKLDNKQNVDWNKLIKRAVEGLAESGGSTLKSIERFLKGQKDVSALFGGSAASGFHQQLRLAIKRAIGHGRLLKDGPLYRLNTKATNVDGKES
The E-score of `AGATACTG` is reported as -0.181.
With `AAACTCTA` the E-score was -0.119.
With `ACACCCTA` the E-score was -0.102.
`GCATCTCA` gave an E-score of -0.0933.
`CGCTCGAA` has an E-score of 0.063.
`AGGCCGCC` gave an E-score of 0.183.
With `CAAGGTGG` the E-score was -0.125.
The E-score of `CGTCTCAA` is reported as 0.00632.
The E-score of `ATTATAAT` is reported as -0.0439.
The E-score of `GACCCGCA` is reported as 0.183.
`AGTGTCAC` gave an E-score of -0.0283.
The E-score of `AGGGATCA` is reported as -0.258.
`CAAGACAC` gave an E-score of 0.00519.
For `AAACTTCC`, the E-score was -0.0634.
`AACCGGTC` gave an E-score of 0.147.

Sample 2 — method: RNA Bind-n-Seq; molecule type: RNA; matrix: in vitro; tested at: 1 µM; notes: whole 134-nt RNA, ends assumed; added: 150 mM KCl; baseline: input library; direction: higher = stronger binding
Target: Ras GTPase-activating protein-binding protein 1, C-terminal RGG region (G3BP1, Homo sapiens, UniProt Q13283)
UniProt Q13283, sequence (whole entry, looked up): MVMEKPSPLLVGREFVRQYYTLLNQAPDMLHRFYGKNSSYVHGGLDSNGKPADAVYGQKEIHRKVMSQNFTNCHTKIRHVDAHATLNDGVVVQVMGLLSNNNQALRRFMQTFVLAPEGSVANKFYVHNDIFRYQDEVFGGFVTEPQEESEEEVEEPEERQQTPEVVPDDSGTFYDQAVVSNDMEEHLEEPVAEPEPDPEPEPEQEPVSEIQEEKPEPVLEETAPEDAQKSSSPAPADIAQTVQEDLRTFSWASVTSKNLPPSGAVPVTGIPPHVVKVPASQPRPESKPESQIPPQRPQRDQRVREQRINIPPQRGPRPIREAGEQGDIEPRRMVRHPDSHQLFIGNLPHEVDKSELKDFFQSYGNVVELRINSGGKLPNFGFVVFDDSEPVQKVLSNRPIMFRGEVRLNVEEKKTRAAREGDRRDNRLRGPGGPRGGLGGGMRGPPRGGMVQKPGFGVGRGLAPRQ
All sequences stand within: GGGAGUUCUACAGUCCGACGAUC … UGGAAUUCUCGGGUGUCAAGG
The log2 enrichment of `CUGUGCUACACAUCGUAUGUACCGAAUCGGGGCCCCCCCGGGCCCCCCCGGGCCCCCCCGGAAAGUAUUAUGUUACGCCGUUCGGAUCUG` is reported as -1.64.
`GGAUCAAAGCAAGUUGGAGAAACAUCAGCACCUGGAGACACCUUAGAUGGCACACCUCGUACUCUCAAUACUGUCUUUGAUUUCCCACCA` has a log2 enrichment of -0.0574.
`ACCAUGCAGGUGGGCAUCUUUGGGAAGUGGGGCAAGGGGGGGAAAGGGAGGGGGGUAACACUUUGGGAACAGGUGGUCCCAGGUCGUUUC` gave a log2 enrichment of -0.468.
`CCUGUGCUACACAUCGUAUGUACCGAAUCGGGUUUUUUGGGGUUUUUUGGUUUUUUGGGGAAAGUAUUAUGUUACGCCGUUCGGAUCUGC` gave a log2 enrichment of -1.58.
With `GUCCUGUGCUACACAUCGUAUGUACCGAAUCGGGGUUUGGGGAGGGGAAAAAAAGGGGAAAGUAUUAUGUUACGCCGUUCGGAUCUGCAC` the log2 enrichment was 1.4.
`UUUCUCUCACCAGGUACCAGGUCAUCAGUACACCAUCUGAUAUUUUCAUGGUGAUGGAAUAUGUCUCAGGAGGAGAGCUAUUUGAUUAUA` gave a log2 enrichment of -1.15.
`UAACUUUAGAGGAGGAUCUGAUGGAUAUGGCAGUGGACGUGGAUUUGGGGAUGGCUAUAAUGGGUAUGGAGGAGGACCAGGAGGUGGCAA` has a log2 enrichment of -0.879.

Sample 3 — method: protein-binding microarray; molecule type: double-stranded DNA, one strand shown; matrix: in vitro; tested at: 940 nM top; notes: 60-bp whole probe; added: salmon DNA 0.4 mg/ml; baseline: random background probes; direction: higher = stronger binding; all sequences stand within: GCCTAGCAC … GTCTTGATTCGCTTGACGCTGCTG
Target: Interferon regulatory factor 5, full length, phosphomimetic (IRF5, Homo sapiens, UniProt Q13568-2, residues 1-514, S451D/S453D/S456D/S462D)
`TTAGGCTTCGGACTGGGTTAGTGCTAG`: “fitted relative affinity” -0.451 z-score.
`GACGAACTGAGGCTGGAGACGTGCTAG`: “fitted relative affinity” -0.68 z-score.
`GACGGTATCCTTATCCTGGCGTGCTAG` — result for “fitted relative affinity”: 0.577 z-score.
`TCCACTTGTCTTTTCATTTTGTGCTAG` — result for “fitted relative affinity”: 1.16 z-score.
`ATTTGTCCCTATTTAAGAGAGTGCTAG`: “fitted relative affinity” 0.563 z-score.
For `GACGGTATCGACAGTGGGGACGTGCTA`, “fitted relative affinity” read 3.88 z-score.
Under “fitted relative affinity”, `TCAACATTCACCATGGCACTGTGCTAG` is recorded as 0.437 z-score.
Under “fitted relative affinity”, `GACGGTTTTGGACTGGGGACGTGCTAG` is recorded as 0.484 z-score.
Under “fitted relative affinity”, `GAGGGACTGGACTTTCGGGACGTGCTA` is recorded as -0.0634 z-score.
`TCATTTATATACCTGAAACTGTGCTAG`: “fitted relative affinity” 0.59 z-score.
Under “fitted relative affinity”, `TCATCTTTCCTTCTTGAACTGTGCTAG` is recorded as 1.44 z-score.
For `GACGGTAACGACACTGGGGACGTGCTA`, “fitted relative affinity” read -0.128 z-score.
`CCCATGCTGGATGAAGTACAGTGCTAG` — result for “fitted relative affinity”: -0.393 z-score.

Sample 4 — target: CCNB2, cyclin fold, Cln2 fusion (human); method: yeast growth competition, sequencing; matrix: yeast; notes: weak parent motif; baseline: not given; direction: higher = stronger binding
Parent: CDKN1A docking peptide (human); SKACRRLFGPVDS
For `K2S`, “normalised enrichment score” read 0.124.
For `L7G`, “normalised enrichment score” read -0.0292.
`V11K`: “normalised enrichment score” -0.0717.
`G9H` — result for “normalised enrichment score”: 0.523.
`G9P` — result for “normalised enrichment score”: 0.283.
For `A3S`, “normalised enrichment score” read -0.0674.
For `A3H`, “normalised enrichment score” read 0.427.
`F8K` — result for “normalised enrichment score”: 0.333.
`C4E`: “normalised enrichment score” -0.0116.
`R5L` — result for “normalised enrichment score”: -0.188.
`L7K`: “normalised enrichment score” 0.765.
For `K2R`, “normalised enrichment score” read 0.201.
`R5N` — result for “normalised enrichment score”: 0.173.
`L7A`: “normalised enrichment score” 0.19.
`D12Y` — result for “normalised enrichment score”: 0.179.
For `F8V`, “normalised enrichment score” read 0.427.
`K2F`: “normalised enrichment score” -0.199.
`F8T`: “normalised enrichment score” -0.335.
